Measurements of several laboratories.
Lines come from different studies, so protocols differ. ± gives the spread as reported.
Target: Muscarinic acetylcholine receptor M2 (CHRM2, Homo sapiens, UniProt P08172)
Sequence of UniProt P08172 (whole entry, looked up): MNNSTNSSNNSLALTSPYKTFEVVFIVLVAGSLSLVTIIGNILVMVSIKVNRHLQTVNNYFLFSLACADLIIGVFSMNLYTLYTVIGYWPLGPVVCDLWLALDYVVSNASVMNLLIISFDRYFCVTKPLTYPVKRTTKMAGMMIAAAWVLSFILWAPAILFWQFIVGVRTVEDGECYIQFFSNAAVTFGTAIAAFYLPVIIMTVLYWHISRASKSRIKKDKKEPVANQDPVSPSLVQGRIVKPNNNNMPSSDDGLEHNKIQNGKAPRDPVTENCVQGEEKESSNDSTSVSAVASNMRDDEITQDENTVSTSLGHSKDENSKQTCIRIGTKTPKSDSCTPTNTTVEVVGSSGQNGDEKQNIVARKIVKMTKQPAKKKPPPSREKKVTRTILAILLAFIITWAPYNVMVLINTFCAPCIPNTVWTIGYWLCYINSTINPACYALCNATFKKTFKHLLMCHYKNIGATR

C=CCn1c(=O)c2ccccc2n2c(SCC(=O)NCc3ccc(NC(C)=O)cc3)nnc12  Emax (receptor activation, agonist; concentration not given, 16 h): 222 ± 15%
CCCCOc1ccc(C(=O)OCC[N+]2(C)CC=CCC2)cc1 (centres unmarked)  basal binding (membranes; 10 µM, 15 h, no carbachol; reference: control): 1.4 ± 0.07 fold
C=CCn1c(=O)c2ccccc2n2c(SCC(=O)Nc3ccc(NC(C)=O)cc3)nnc12  Emax (receptor activation, agonist; concentration not given, 16 h): 280 ± 27%
COc1ncc2nc(C)n(Cc3ncc(S(N)(=O)=O)cc3F)c2c1-c1ccccc1  inhibition (antagonist, cell-based; 10 µM): 19.2%
C[Si](C)(C)C[C@@H](CN)CC(=O)O  inhibition (ligand displacement, radioligand; 75 µM): -2%
CCCCOc1ccc(C(=O)OCCN2CC=CCC2)cc1  basal binding (membranes; 100 µM, 15 h, no carbachol; reference: control): 0.71 ± 0.04 fold
COc1ccc(C(=O)Nc2c(-c3cccs3)nc3ccccn23)cc1  inhibition (ligand displacement, radioligand; 10 µM): < 50%
Brc1ccccc1-c1nnc(CSc2nnnn2-c2ccccc2)o1  inhibition (ligand displacement, radioligand; 10 µM): 10%
CCC(=O)N(C)c1ccc(Cl)c(Cl)c1  inhibition (ligand displacement, radioligand; 10 µM): < 10%
Cn1ccc2cc(-n3c(=O)[nH]c4sc5c(c4c3=O)CCCC5)ccc21  inhibition (cell-free assay, radioligand; 10 µM): 0%
CCCCCCOc1ccc(C(=O)OCC[N+]2(C)CC=CCC2)cc1 (centres unmarked)  basal binding (membranes; 100 µM, 15 h, no carbachol; reference: control): 0.88 ± 0.05 fold
Cc1cccc(O[C@H]2CCC[C@@H](C(C)CNCc3ccncc3)C2)c1 (relative stereo)  inhibition (ligand displacement; 10 µM): 79%
Cc1[nH]nc2c1N=C(c1ccccc1Cl)c1cnc(N3CCOCC3)cc1N2  inhibition (cell-free assay; 10 µM): 1%
C=CCn1c(=O)c2ccccc2n2c(SCC(=O)NC3CC3)nnc12  cooperativity factor (allosteric modulator; together with: [3H]NMS): 3.9 ± 1
CCCCCCOc1ccc(C(=O)OCCN2CC=CCC2)cc1  basal binding (membranes; 1 µM, 15 h, no carbachol; reference: control): 1.9 ± 0.3 fold
C=CCn1c(=O)c2ccccc2n2c(SC(C(=O)OCC)c3ccccc3)nnc12 (centres unmarked)  Emax (receptor activation, agonist; concentration not given, 16 h): 232 ± 15%
O=C1c2sc(-c3ccc(N4CCC(F)C4)nc3F)nc2CCN1c1cccnc1 (centres unmarked)  inhibition (ligand displacement, radioligand; 1 µM): 7%

Repeated from above:
Cc1[nH]nc2c1N=C(c1ccccc1Cl)c1cnc(N3CCOCC3)cc1N2  inhibition (cell-free assay; 10 µM): 1%
C=CCn1c(=O)c2ccccc2n2c(SCC(=O)Nc3ccc(NC(C)=O)cc3)nnc12  Emax (receptor activation, agonist; concentration not given, 16 h): 280 ± 27%
Cn1ccc2cc(-n3c(=O)[nH]c4sc5c(c4c3=O)CCCC5)ccc21  inhibition (cell-free assay, radioligand; 10 µM): 0%
